Measured values collected from several papers.
A part holds a random share of what one study measured.

Series 1
Target: Ras GTPase-activating protein-binding protein 1, full length (G3BP1, Homo sapiens, UniProt Q13283)
Sequence of UniProt Q13283 (whole entry, looked up): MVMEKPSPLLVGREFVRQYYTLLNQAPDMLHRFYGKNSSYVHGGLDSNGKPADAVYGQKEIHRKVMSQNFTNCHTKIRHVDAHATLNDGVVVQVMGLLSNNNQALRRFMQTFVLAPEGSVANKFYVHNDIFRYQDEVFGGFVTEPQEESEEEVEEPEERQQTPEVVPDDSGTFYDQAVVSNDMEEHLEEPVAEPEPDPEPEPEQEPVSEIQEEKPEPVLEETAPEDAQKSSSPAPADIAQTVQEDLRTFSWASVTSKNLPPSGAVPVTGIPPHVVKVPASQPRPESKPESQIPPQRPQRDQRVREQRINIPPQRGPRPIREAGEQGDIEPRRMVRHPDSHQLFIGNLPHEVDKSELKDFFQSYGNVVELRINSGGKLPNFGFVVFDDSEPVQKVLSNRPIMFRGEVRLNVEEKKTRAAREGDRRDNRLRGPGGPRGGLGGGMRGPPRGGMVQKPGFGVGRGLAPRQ
Technique: RNA Bind-n-Seq
Molecule type: RNA
Medium: in vitro
Tested at: 200 nM
Setting: whole 134-nt RNA, ends assumed
Added: 150 mM LiCl
Baseline: input library
Reading: higher = stronger binding
All molecules: 7-deaza-guanosine replaces G
| Oligonucleotide | log2 enrichment |
| --- | --- |
| GGGAGUUCUACAGUCCGACGAUCUCCUGUGCUACACAUCGUAUGUACCGAAUCGGGGAAAGGGGUUUUUUUGGGGAAAGGGGAAAGUAUUAUGUUACGCCGUUCGGAUCUGCAUGGAAUUCUCGGGUGUCAAGG | 0.269 |
| GGGAGUUCUACAGUCCGACGAUCUUUUCUGCAUGGACCGUGCCCUAGAAUUUGCCCCUGCCUGCCAUCGCUUCAAAAUCCUCAAGGCAGAAUGUUUAGCAAUGCUGGGUCGUUUGGAAUUCUCGGGUGUCAAGG | 0.156 |
| GGGAGUUCUACAGUCCGACGAUCUCCUAGUAUUCUGGCCGUUCAGAGAUCUGCAAUCCUCAAGAAGCAGCAACAGCAGCAGCAGCAACAACAACAUCAAGCCUCAUCUAAUAGUGGAAUUCUCGGGUGUCAAGG | 1.24 |
| GGGAGUUCUACAGUCCGACGAUCUGUUGGGCUUCGAUCCCAGGUGGAUGAUGAUGCCUUCCUACAUGGACCCACGUAUCACGCCCACUCGGACCCCGGUGGACUUCUACCCCUUGGAAUUCUCGGGUGUCAAGG | -0.84 |

Series 2
Target: Histone acetyltransferase KAT6A, both winged helices, GST fusion (KAT6A, Homo sapiens, UniProt Q92794, residues 1-181)
Technique: protein binding microarray
Molecule type: double-stranded DNA, one strand shown
Medium: in vitro
Tested at: not given
Setting: 8-mer, flanks averaged, mean of 2 arrays, mostly near background
Baseline: not given
Reading: higher = stronger binding
Residues (chain): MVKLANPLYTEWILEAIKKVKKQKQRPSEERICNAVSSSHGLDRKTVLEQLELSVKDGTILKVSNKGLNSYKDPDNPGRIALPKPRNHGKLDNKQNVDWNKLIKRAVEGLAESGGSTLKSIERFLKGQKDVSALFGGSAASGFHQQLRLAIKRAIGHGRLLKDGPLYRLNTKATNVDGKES
| Oligonucleotide | E-score |
| --- | --- |
| ACTTGGCG | -0.0937 |
| TAGAGGGA | -0.253 |
| TGATAACA | -0.0471 |
| AGAAAAAA | -0.0928 |
| ATTACAGA | -0.0533 |
| TAATCCAA | -0.218 |
| AAATTGTT | -0.00282 |
| GACTAAGA | -0.0511 |

Series 3
Target: Prothrombin, mature alpha-thrombin (F2, Homo sapiens, UniProt P00734)
Technique: aptamer microarray, sandwich
Molecule type: DNA with 2'F-ANA
Medium: in vitro
Tested at: 200 nM
Setting: whole 15-mer aptamer, many near background
Added: Cy3 exosite-II aptamer, 400 nM
Reading: higher = stronger binding
Oligonucleotide: GGTTGGTGTGGTTGG
| Modification | mean fluorescence intensity [a.u.] |
| --- | --- |
| 2'F-ANA at 2 6 7 8 12 13 14 | 168 |
| 2'F-ANA at 2 4 6 11 13 | 170 |
| 2'F-ANA at 1 2 3 5 6 8 11 13 15 | 57.7 |
| 2'F-ANA at 2 6 10 12 14 | 101 |
| 2'F-ANA at 1 2 6 7 9 12 | 352 |
| 2'F-ANA at 3 6 7 10 12 13 15 | 528 |
| 2'F-ANA at 3 5 7 8 12 13 14 15 | 71.9 |
| 2'F-ANA at 2 6 7 12 14 15 | 168 |
| 2'F-ANA at 2 4 6 7 9 10 14 15 | 112 |

Other studies, line by line
| Substance | target | assay | test system | setting | scale | measurement | result |
| --- | --- | --- | --- | --- | --- | --- | --- |
| PhoQ, residues 284 288 289 292 302 303 SSYNSA | PhoP, residues 12 14 15 18 19 LQHIR (Escherichia coli, UniProt P23836) | Sort-seq, measured: YFP reporter | E. coli | PhoQ-PhoP variant library, added: 10 µM Mg2+ | baseline: high Mg2+ state, higher = stronger signaling | fold induction | 1.78 |

A few entries again (series 2):
| Oligonucleotide | E-score |
| --- | --- |
| TAATCCAA | -0.218 |
| ATTACAGA | -0.0533 |
